Published values from different studies.
Every numbered part comes from another study and shows a few of its results, in no order. Substitutions count along the parent as printed.

Set 1
Target: CCND1, cyclin fold, Cln2 fusion (human)
Method: yeast growth competition, sequencing
Medium: yeast
Setting: weak parent motif
Baseline: not given
Direction: higher = stronger binding
Parent: SLBP docking peptide (human); ARYKRKLLINDFG; partner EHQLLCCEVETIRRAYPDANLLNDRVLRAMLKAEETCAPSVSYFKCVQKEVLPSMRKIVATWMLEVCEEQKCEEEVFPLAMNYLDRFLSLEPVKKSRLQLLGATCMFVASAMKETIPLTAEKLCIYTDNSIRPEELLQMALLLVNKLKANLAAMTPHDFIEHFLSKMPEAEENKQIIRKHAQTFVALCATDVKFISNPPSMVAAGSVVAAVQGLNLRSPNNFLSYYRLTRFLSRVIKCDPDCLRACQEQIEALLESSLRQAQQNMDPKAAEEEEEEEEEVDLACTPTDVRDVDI
| Change | normalised enrichment score |
| --- | --- |
| L8Q | 0.0313 |
| Y3A | 0.79 |
| L7Y | -0.176 |
| K4V | 0.244 |
| R5K | 0.291 |
| L7N | 0.229 |
| D11Q | -0.000974 |

Set 2
Target: RING finger protein unkempt homolog, zinc fingers 1-6, SBP tag (UNK, Homo sapiens, UniProt Q9C0B0, residues 30-357)
Sequence of UniProt Q9C0B0 (30-357, looked up): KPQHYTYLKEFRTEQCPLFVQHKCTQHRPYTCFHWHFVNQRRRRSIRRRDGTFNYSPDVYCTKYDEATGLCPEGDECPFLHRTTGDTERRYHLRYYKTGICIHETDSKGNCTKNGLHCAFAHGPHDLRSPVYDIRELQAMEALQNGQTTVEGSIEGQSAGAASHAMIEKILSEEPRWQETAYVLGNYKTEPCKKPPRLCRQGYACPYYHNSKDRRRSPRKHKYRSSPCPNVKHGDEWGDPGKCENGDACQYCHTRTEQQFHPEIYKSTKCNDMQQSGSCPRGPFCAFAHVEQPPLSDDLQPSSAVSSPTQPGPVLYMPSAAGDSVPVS
Method: RNA Bind-n-Seq
Molecule type: RNA
Medium: in vitro
Concentration: 100 nM
Setting: RNA with constant flanks, vertebrate orthologous sites, ends assumed
Baseline: input RNA pool
Direction: higher = stronger binding
Shared flanks, not repeated: GGGAGUUCUACAGUCCGACGAUC … CAACAGAGGAUUGAGCAUCA
| Oligonucleotide | bound/input enrichment |
| --- | --- |
| AAGAUGGUGGUUGUACAUUAUUUCAUUCAGAAAAUAUGAGAACUCAUUUUGUUUUGAAGCUAGGUGUUAAACUGGAAUAGCUAUUACGUUCUUGAAAAUGGGGCAGUUGUGCCCUAACCU | 0.594 ratio |
| UAUGAGGGGGUUGCCUUGGCCCCUGCCUUGGCCUUGCCUCUCCUCCUUGCCACCUGUCCCUAGUUAUUUUUUUUUAACCACCACGUGAUUAUGGUCGGUGCUGCCUCUCCCCCGACCAGC | 4.99 ratio |
| UUGGUUUGGGGUAGAGGGGAGGGAAGGGCAGGAUGGUAUGGAAUCUCUAGGGUAUAUGGGUAGUUAGGGUACACAGUUAGUUCUAAGUGGGCCUUUAUGUUAAAAAUUUUUGGGAGGUGA | 1.91 ratio |
| UACUGUUGUUAAGCACUGUUCCAGACCGUGUCUGACUUUAGUGUAACCUAGGAGAUUUUAUAGUUUUAUUUUAAUGGAAUCCUGCCUGACGCAGAGCAGUGGGGAGAGCAGUGUCUUCUG | 1.96 ratio |
| ACUGUUGUUAAGCACUGUGUUCCAGACUGUGUCUGACUUAGUGUAACCUAGGAGAUUUUAUAGUUUUAUUUUAAUGAAAUCCUGAUUGACGCAGAGCAGUGGGGAGAACGGUCCCUUUUA | 1.81 ratio |
| GGUUCUGUCUGUUGGUGCAGAGUGCUCUGCGCCAGUGCUCAUCAUCCCUUCGUACUGAACCUAGCUAUAGGAAUUUAAUAUUUUUAAAAGUUUUACAUUGCUGUAUAUUCAAAGAUUUGU | 0.581 ratio |

Set 3
Target: RNA binding protein fox-1 homolog 2, RRM domain, GST-SBP tag (RBFOX2, Homo sapiens, UniProt O43251-10, residues 100-194)
Method: RNA Bind-n-Seq
Molecule type: RNA
Medium: in vitro
Concentration: 365 nM
Setting: natural RNA segment, single round, ends assumed
Baseline: no-protein control
Direction: higher = stronger binding
Shared flanks, not repeated: GGGAGUUCUACAGUCCGACGAUC … UGGAAUUCUCGGGUGCCAA
Residues (chain): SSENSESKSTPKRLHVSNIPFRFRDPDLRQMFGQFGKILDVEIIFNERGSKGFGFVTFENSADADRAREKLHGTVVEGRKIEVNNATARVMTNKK
| Oligonucleotide | RBNS enrichment (R) |
| --- | --- |
| CUGUUAGCCCAGUGAGUUCUCCACAGUUACUGUAUGUGAUCUUCAUGGGCAGCAAAUGGAAAGUCUUCCAAUCAGUACUCCAGGCCUUGAACACGUGCACACAUGAGUUC | 0.32 |
| GCGGGGGAAUGCAGCCAGUGUCCCCCUCCCCUCUUCCACCCCAGCUCCAGCCCUGGUCUUGUCUUUUCAUCCCUCUUCCCCACGACAGAAGAAGUUGUGGCCCUGGCCAU | 0.36 |
| AUAUUUGUACAUCUAUGCAAAAUACUUGAAUGGGCCAUGGUGCCUUGUUUUUUGUUGUUGUUGUUAUUUUUUUCUCCUUGUUUGUAUUUAAUUAAAACAAAUUGUCAUGA | 1.53 |
| UCCUGUUCCACCUCAGGUUUUCACAGGUGCUCCCACCCCAGUUGAGGCUCCCACCCACAGGGCUGUCUGUCACAAACCCACCUCUGUUGGGAGCUAUUGAGCCACCUGGG | 0.214 |
| AUCAGCCCCAUUCUCCCAUUCUUUAAGAACAAUGAUUUUUCUUGAUGGAAAAUGCAUAUCACUUGACAGUUGACAAGAAAGUGUCAUUUUUGUGUUAGUGUAUCAUAUAA | 0.481 |
| UGUAAAACACAUGGCUUCUUCUGUGUAUAUUUUUUAAAAUUAAAGACUUGCACAUUUAAAAAACUGUUUUGUGGAUCCAGUUUGUGAACUUAUCAGUUGACAGAAGGACU | 0.44 |
| UGGAGGCUUCAGUGACGACAGGCAGUUGUCACAAAAACUCACUCAUCAACUUCUUGGUGAAUUUGACAGGCAAGAAGAUGACAUUCACUUAGUGACAUUAUGUGUGACAG | 0.27 |
| GAAUGUGCCUUUUUCAGAGUUGGCCAGGAGCUCCUGGCUGGGACACGGAGAGGCAGGUGUGGCGUAAGGCCUCACUCCCGGCUGGGAAGGUCUCUGAUCACACAGAAGCA | 9.45 |

Mixed results
| Molecule | target | assay | test system | setting | scale | quantity | result |
| --- | --- | --- | --- | --- | --- | --- | --- |
| PhoQ, residues 284 288 289 292 302 303 ASTSDA | PhoP, residues 12 14 15 18 19 TTLRV (Escherichia coli, UniProt P23836) | Sort-seq, refers to: YFP reporter | E. coli | PhoQ-PhoP variant library, together with: 10 µM Mg2+ | baseline: high Mg2+ state, higher = stronger signaling | fold induction | 4.13 |

Repeated from above (set 2):
| Oligonucleotide | bound/input enrichment |
| --- | --- |
| UACUGUUGUUAAGCACUGUUCCAGACCGUGUCUGACUUUAGUGUAACCUAGGAGAUUUUAUAGUUUUAUUUUAAUGGAAUCCUGCCUGACGCAGAGCAGUGGGGAGAGCAGUGUCUUCUG | 1.96 ratio |
